Assay results pooled from the literature.
Lines come from different studies, so protocols differ. ± gives the spread as reported.
Cell line: HeLa

Compound = CC1(C(=O)O)CCC2(C(=O)O)CCC3(C)C(=CCC4C5(C)CCC(O)C(C)(C)C5CCC43C)C2C1 (centres unmarked); assay = cell growth or viability, MTT; conditions = 72 h; IC50 = 81.5 µM
Compound = Oc1c(Br)cc(Br)c2nc3cc(SC(F)(F)F)ccc3nc12; assay = cytotoxicity, LDH release; conditions = 24 h, 10% FBS; IC50 = > 100 µM
Compound = CCc1ccc(C2=C3C(C)=CC(C)=[N+]3[B-](F)(F)n3c(C)cc(C)c32)cc1; assay = cell growth or viability, MTT; conditions = 24 h; IC50 = > 50 µM
Compound = Oc1c(Br)cc(Br)c2nc3cc(Br)ccc3nc12; assay = cytotoxicity, LDH release; conditions = 24 h, 10% FBS; IC50 = > 100 µM
Compound = O=C1CCC(N2C(=O)c3cccc(NCCOCCOCCOCCOCCOCCOCCOCCO)c3C2=O)C(=O)N1 (centres unmarked); assay = cytotoxicity, MTT; conditions = 48 h; IC50 = > 40 µM
Compound = C[C@@]1(CO)CC[C@]2(C(=O)O)CC[C@]3(C)C(=CCC4[C@@]5(C)C[C@@H](O)[C@H](O)[C@@](C)(CO)C5CC[C@]43C)C2C1 (some centres unmarked); assay = cell growth or viability, MTT; conditions = 72 h; IC50 = > 100 µM
Compound = Oc1c(Br)cc(Br)c2nc3c(C(F)(F)F)cc(C(F)(F)F)cc3nc12; assay = cytotoxicity, LDH release; conditions = 24 h, 10% FBS; IC50 = > 100 µM
Compound = O=C1CCC(N2C(=O)c3cccc(NCCOCCOCCOCCOCCOCCOCCOCCNCCNc4nonc4/C(=N/O)Nc4ccc(F)c(Br)c4)c3C2=O)C(=O)N1 (centres unmarked); assay = cytotoxicity, MTT; conditions = 48 h; IC50 = 37.4 µM
Compound = CC1=[N+]2N=C(c3ccccc3)[O][Pd-2]2([Cl])[O+]=C2Oc3ccccc3C=C21 (centres unmarked); assay = cytotoxicity, MTT; conditions = 48 h; IC50 = 9.79 ± 0.8 µM
Compound = OCCOCCOCCOCCOCCOCCOCCOCCNCCNc1nonc1/C(=N/O)Nc1ccc(F)c(Br)c1; assay = cytotoxicity, MTT; conditions = 48 h; IC50 = > 40 µM
Compound = CC(=O)Nc1ccc(-c2csc(Nc3cccc(C(F)(F)F)c3)n2)cc1; assay = cell growth or viability, resazurin; conditions = 72 h; IC50 = 8.8 µM
Compound = Oc1c(Br)cc(Br)c2nc3cc(Cl)ccc3nc12; assay = cytotoxicity, LDH release; conditions = 24 h, 10% FBS; IC50 = > 100 µM
Compound = NC(=O)c1cc2c3ccccc3ccn2c1-c1ccccc1; assay = cytotoxicity, flow cytometry propidium iodide; conditions = 48 h, 10% FBS; IC50 = 0.554 ± 0.087 µM
Compound = C[C@H](NC(=O)CCCCCC1(C)C(/C=C/C=C/C=C2/N(CCCS(=O)(=O)O)c3ccc(S(=O)(=O)O)cc3C2(C)C)=[N+](CCCS(=O)(=O)[O-])c2ccc(S(=O)(=O)O)cc21)C(=O)N[C@@H](CC(=O)Nc1ccc(C(F)(F)C(F)(F)C(F)(F)C(F)(F)C(F)(F)C(F)(F)C(F)(F)C(F)(F)C(F)(F)C(F)(F)F)cc1)C(=O)N[C@@H](Cc1ccccc1)C(N)=O (some centres unmarked); assay = cytotoxicity; test system = serum-free DMEM; conditions = 1 h; IC50 = 34 ± 2 µM
Compound = O=C1CCC(N2Cc3c(NC(=O)COCCOCCOCCOCCNCCNc4nonc4/C(=N/O)Nc4ccc(F)c(Br)c4)cccc3C2=O)C(=O)N1 (centres unmarked); assay = cytotoxicity, MTT; conditions = 48 h; IC50 = > 40 µM
Compound = CC(=O)[O-].Nc1ccc(C([O-])=NN=Cc2ccc(OCC(=O)Nc3ccc(Cl)cc3)cc2)cc1.O.O.O.[Co+2]; assay = cytotoxicity, MTT; conditions = 24 h; IC50 = 19.7 ± 2 µg/mL
Compound = CC(=O)Nc1ccc(-c2csc(Nc3cccc(F)c3)n2)cc1; assay = cell growth or viability, resazurin; conditions = 72 h; IC50 = 30 µM
